Experimental data collected from several papers.
Every numbered part comes from another study and shows a few of its results, in no order. Positions count from the first letter of the parent shown.
Chain of UniProt O75747 (whole entry, looked up): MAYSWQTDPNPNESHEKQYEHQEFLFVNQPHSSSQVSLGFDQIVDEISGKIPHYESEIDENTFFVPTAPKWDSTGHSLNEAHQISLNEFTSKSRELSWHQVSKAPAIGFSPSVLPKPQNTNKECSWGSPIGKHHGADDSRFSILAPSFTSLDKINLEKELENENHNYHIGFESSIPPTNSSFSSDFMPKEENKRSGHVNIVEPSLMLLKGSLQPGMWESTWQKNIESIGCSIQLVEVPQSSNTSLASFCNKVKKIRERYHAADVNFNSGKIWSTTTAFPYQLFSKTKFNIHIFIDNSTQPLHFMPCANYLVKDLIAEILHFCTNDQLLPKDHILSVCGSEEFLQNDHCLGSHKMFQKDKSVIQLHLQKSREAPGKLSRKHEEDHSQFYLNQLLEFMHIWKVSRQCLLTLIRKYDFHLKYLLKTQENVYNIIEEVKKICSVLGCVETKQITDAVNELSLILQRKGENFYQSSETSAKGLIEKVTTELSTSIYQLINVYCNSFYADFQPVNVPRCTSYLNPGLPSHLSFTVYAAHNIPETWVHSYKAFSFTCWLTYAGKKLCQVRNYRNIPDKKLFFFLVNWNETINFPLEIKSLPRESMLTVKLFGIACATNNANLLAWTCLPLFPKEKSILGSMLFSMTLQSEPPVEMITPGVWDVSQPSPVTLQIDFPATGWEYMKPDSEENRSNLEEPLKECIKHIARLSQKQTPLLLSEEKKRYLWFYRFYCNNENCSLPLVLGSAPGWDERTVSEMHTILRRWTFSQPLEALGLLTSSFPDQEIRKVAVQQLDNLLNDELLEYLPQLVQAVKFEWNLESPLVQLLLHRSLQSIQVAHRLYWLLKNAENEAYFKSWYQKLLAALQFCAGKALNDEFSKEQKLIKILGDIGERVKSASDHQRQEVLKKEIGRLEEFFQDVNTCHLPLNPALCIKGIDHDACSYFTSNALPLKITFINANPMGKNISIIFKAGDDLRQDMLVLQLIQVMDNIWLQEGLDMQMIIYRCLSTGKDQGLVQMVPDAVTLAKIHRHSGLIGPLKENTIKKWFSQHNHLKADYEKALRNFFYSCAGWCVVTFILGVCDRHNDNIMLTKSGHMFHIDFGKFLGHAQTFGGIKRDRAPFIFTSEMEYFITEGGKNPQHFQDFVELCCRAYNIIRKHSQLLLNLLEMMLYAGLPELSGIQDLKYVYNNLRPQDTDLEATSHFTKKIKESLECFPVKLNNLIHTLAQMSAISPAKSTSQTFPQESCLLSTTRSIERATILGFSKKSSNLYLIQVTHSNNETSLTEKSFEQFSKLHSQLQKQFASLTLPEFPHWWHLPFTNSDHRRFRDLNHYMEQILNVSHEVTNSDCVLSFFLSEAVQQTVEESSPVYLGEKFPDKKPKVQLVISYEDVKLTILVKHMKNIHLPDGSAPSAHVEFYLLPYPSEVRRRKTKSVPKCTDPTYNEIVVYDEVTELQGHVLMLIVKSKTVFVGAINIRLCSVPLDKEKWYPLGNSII

Block 1
Compound: Cn1cncc1[C@](O)(COc1ccc(C#N)cc1-c1ccc(OC(F)(F)F)cc1)c1ccc(C#N)cc1
Concentration: 1 µM
target	read-out	method	remaining binding [%]
PIK3C2G (Homo sapiens, UniProt O75747)	cell-free assay	competition with immobilised ligand	81
Tyrosine-protein kinase ABL1, phosphorylated (ABL1, Homo sapiens, UniProt P00519, Q252H)	cell-free assay	competition with immobilised ligand	100
EGFR (Homo sapiens, UniProt P00533, L861Q)	cell-free assay	competition with immobilised ligand	71
ULK1 (Homo sapiens, UniProt O75385)	cell-free assay	competition with immobilised ligand	100
CDKL3 (Homo sapiens, UniProt Q8IVW4)	cell-free assay	competition with immobilised ligand	87
MAP4K3 (Homo sapiens, UniProt Q8IVH8)	cell-free assay	competition with immobilised ligand	100
CDC42BPG (Homo sapiens, UniProt Q6DT37)	–	competition binding	85
PIK3C2B (Homo sapiens, UniProt O00750)	cell-free assay	competition with immobilised ligand	89
TGFBR1 (Homo sapiens, UniProt P36897)	cell-free assay	competition with immobilised ligand	81
DYRK2 (Homo sapiens, UniProt Q92630)	cell-free assay	competition with immobilised ligand	52
MAP4K5 (Homo sapiens, UniProt Q9Y4K4)	cell-free assay	competition with immobilised ligand	100
CAMK1G (Homo sapiens, UniProt Q96NX5)	cell-free assay	competition with immobilised ligand	96
GRK2 (Homo sapiens, UniProt P25098)	cell-free assay	competition with immobilised ligand	74
SYK (Homo sapiens, UniProt P43405)	cell-free assay	competition with immobilised ligand	95
Ribosomal protein S6 kinase alpha-2, C-terminal kinase domain (RPS6KA2, Homo sapiens, UniProt Q15349)	cell-free assay	competition with immobilised ligand	85
KIT (Homo sapiens, UniProt P10721, V559D)	cell-free assay	competition with immobilised ligand	100
Tyrosine-protein kinase ABL1, non-phosphorylated (ABL1, Homo sapiens, UniProt P00519, H396P)	cell-free assay	competition with immobilised ligand	91
Ribosomal protein S6 kinase alpha-5, C-terminal kinase domain (RPS6KA5, Homo sapiens, UniProt O75582)	cell-free assay	competition with immobilised ligand	76
PIKFYVE (Homo sapiens, UniProt Q9Y2I7)	cell-free assay	competition with immobilised ligand	100
PRKACB (Homo sapiens, UniProt P22694)	cell-free assay	competition with immobilised ligand	93
CAMK2G (Homo sapiens, UniProt Q13555)	cell-free assay	competition with immobilised ligand	94
CDC42BPA (Homo sapiens, UniProt Q5VT25)	cell-free assay	competition with immobilised ligand	78

Block 2
Target: CCNE1, cyclin fold, Cln2 fusion (human)
Method: yeast growth competition, sequencing
Medium: yeast
Notes: strong parent motif
Baseline: not given
Direction: higher = stronger binding
Parent: viral docking peptide; CKVKRKLFGSENI
Variant	normalised enrichment score
K4A	3.75
R5K	0.856
L7A	1.05
R5A L7A	0.191
G9A	6.4

Block 3
Target: Calcium/calmodulin-dependent protein kinase type II subunit alpha (CAMK2A, Homo sapiens, UniProt Q9UQM7)
Chain of UniProt Q9UQM7 (whole entry, looked up): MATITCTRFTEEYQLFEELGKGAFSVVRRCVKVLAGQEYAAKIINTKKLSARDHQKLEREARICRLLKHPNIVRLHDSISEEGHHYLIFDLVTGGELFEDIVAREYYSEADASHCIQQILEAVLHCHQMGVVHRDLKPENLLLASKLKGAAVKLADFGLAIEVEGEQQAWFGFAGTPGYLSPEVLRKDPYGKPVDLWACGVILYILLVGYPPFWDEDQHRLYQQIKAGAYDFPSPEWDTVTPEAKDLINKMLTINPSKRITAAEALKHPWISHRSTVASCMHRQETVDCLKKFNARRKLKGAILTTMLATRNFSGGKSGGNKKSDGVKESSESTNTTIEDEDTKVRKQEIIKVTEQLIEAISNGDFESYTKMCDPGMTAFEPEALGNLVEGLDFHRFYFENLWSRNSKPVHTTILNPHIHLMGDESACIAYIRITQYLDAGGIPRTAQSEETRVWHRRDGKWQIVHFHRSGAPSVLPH
Read-out: enzyme activity
Mode: inhibitor
Concentration: 10 µM
Compound	inhibition [%]
CO[C@H]1C[C@H](O[C@H]2CC[C@@]3(C)[C@H](CC[C@@H]4[C@@H]3CC[C@]3(C)[C@@H](C5=CC(=O)OC5)[C@@H](OC(C)=O)C[C@]43O)C2)O[C@@H](C)[C@@H]1O	-5
Cc1cc(=O)[nH]c(=O)[nH]1	-24
Cc1cc(=O)c2c(O)c3c(O)cc(O)c4c5c(O)cc(O)c6c(O)c7c(=O)cc(C)c8c1c2c(c34)c(c65)c78	3

Block 4
Target: HLA class I histocompatibility antigen, C alpha chain, allele C*04:01 (Homo sapiens, UniProt P10321)
Read-out: peptide-MHC binding
Form: peptide
Concentration: concentration not given
Molecule	binding
VMPPRTLLL	inactive
FTDISMSLY	inactive
VPRPRFSAL	inactive
MPFAWQFGF	inactive
RFVLALLAF	inactive
YFDDVTAFL	active
SYSTPALTL	inactive
FVVDTTPPL	inactive

Further values, each from its own experiment
POLQ ATPase domain: DNA polymerase theta, ATPase domain (POLQ, Homo sapiens, UniProt O75417)
Chain of UniProt O75417 (whole entry, unmodified, looked up): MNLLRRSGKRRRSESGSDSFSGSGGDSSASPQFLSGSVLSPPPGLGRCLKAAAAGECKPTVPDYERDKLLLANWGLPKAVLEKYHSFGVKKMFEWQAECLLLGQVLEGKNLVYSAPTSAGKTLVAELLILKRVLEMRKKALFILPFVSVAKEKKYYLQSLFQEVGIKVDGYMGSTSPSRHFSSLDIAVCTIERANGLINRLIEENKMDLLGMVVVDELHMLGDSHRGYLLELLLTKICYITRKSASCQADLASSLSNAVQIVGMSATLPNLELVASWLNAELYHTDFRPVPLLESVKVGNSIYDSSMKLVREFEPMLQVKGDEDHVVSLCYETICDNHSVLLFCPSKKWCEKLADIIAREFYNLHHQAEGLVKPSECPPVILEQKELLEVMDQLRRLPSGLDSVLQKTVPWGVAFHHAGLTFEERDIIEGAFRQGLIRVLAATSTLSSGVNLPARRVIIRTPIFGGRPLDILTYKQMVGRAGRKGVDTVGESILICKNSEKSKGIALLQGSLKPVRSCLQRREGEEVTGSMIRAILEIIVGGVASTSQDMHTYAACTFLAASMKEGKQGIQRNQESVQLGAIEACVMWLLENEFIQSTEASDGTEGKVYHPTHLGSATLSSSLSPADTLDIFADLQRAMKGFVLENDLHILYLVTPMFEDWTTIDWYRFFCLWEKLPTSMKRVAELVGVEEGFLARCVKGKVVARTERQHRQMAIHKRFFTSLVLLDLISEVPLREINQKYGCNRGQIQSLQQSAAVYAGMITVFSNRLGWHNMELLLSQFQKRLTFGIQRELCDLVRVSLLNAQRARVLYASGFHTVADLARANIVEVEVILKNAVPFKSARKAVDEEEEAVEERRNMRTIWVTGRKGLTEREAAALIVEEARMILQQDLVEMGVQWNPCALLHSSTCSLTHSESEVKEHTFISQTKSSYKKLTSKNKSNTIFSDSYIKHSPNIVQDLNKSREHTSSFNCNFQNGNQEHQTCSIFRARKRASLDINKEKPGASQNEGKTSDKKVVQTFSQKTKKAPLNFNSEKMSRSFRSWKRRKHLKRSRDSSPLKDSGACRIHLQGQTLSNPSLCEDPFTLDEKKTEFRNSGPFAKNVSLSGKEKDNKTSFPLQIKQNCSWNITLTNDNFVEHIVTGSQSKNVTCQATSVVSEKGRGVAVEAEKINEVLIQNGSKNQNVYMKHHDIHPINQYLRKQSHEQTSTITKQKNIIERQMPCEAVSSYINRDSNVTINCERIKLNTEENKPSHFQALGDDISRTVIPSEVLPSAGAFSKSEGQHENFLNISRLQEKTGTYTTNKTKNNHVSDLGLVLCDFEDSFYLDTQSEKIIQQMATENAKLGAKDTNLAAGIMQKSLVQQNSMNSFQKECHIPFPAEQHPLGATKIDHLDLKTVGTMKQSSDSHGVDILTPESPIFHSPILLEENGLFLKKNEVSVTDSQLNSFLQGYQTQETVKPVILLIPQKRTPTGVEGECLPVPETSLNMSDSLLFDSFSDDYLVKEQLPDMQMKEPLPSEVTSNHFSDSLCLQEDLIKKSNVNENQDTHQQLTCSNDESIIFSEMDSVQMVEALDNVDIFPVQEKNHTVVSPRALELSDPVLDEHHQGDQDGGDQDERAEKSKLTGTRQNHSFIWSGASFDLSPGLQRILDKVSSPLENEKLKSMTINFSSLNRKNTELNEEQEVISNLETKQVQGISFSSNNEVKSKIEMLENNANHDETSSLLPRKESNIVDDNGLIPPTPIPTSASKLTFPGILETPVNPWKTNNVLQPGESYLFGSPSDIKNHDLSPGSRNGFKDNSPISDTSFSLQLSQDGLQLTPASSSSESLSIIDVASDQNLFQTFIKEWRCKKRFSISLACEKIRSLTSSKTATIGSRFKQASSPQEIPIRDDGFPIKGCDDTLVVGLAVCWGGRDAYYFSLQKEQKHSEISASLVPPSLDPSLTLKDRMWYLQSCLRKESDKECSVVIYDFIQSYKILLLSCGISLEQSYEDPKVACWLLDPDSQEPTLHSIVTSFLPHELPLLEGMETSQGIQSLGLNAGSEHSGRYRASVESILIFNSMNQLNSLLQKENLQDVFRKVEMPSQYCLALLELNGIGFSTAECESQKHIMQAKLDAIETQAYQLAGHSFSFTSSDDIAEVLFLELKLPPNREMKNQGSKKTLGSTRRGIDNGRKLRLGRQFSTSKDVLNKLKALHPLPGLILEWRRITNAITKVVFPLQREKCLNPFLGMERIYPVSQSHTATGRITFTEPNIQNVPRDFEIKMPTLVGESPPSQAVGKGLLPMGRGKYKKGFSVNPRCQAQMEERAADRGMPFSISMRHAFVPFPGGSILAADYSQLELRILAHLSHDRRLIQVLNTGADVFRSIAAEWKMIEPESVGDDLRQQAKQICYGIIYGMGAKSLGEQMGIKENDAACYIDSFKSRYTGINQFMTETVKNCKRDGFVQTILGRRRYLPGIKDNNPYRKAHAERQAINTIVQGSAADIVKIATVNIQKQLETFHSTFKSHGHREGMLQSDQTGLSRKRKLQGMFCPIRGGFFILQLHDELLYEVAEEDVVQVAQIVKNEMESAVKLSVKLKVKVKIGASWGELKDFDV
ADRB1: Beta-1 adrenergic receptor (ADRB1, Homo sapiens, UniProt P08588)
Chain of UniProt P08588 (whole entry, looked up): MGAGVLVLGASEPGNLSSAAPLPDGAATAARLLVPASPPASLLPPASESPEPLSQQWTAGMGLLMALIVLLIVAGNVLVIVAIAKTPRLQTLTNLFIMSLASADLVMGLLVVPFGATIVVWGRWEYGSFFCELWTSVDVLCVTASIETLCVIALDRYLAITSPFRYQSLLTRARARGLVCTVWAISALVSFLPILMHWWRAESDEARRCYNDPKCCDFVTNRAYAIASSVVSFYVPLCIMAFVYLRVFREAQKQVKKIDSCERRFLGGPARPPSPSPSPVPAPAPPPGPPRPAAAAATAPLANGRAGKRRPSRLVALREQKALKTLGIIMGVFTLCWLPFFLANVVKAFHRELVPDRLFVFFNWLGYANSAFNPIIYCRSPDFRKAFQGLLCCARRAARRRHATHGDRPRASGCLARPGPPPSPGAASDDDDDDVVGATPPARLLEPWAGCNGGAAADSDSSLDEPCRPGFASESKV
Structure (SMILES)	target or system	assay	setting	how to read	quantity	value
NC1=NC(=O)C(c2ccccc2)O1 (centres unmarked)	Sarcocystis neurona	parasite growth	10 µM, 96 h	–	inhibition	-13.3%
C=C(C)[C@H]1CN[C@H](C(=O)O)[C@H]1CC(=O)O	POLQ ATPase domain	enzyme activity, inhibitor	77 µM	baseline: untreated	remaining activity	107%
C1=C(c2ccccc2)CCN(Cc2nc3ccccc3[nH]2)C1	ADRB1	antagonist	–	–	IC50	≥ 100 µM
CN1CCN(C(=O)O[C@H]2c3nccnc3C(=O)N2c2ccc(Cl)cn2)CC1	Sarcocystis neurona	parasite growth	10 µM, 96 h	–	inhibition	-16.7%
CC(C)[C@@]1(NC(=O)[C@H]2C[C@H]3c4cccc5[nH]cc(c45)C[C@@H]3N(C)C2)O[C@]2(O)[C@H]3CCCN3C(=O)CN2C1=O	ADRB1	antagonist	–	–	IC50	≥ 100 µM
C[C@]12C[C@H]3S[C@H]3C[C@@H]1CC[C@@H]1[C@@H]2CC[C@]2(C)[C@@H](O)CC[C@@H]12	POLQ ATPase domain	enzyme activity, inhibitor	77 µM	baseline: untreated	remaining activity	98.5%

A few entries again (block 3):
Compound	inhibition [%]
CO[C@H]1C[C@H](O[C@H]2CC[C@@]3(C)[C@H](CC[C@@H]4[C@@H]3CC[C@]3(C)[C@@H](C5=CC(=O)OC5)[C@@H](OC(C)=O)C[C@]43O)C2)O[C@@H](C)[C@@H]1O	-5
Cc1cc(=O)[nH]c(=O)[nH]1	-24
Cc1cc(=O)c2c(O)c3c(O)cc(O)c4c5c(O)cc(O)c6c(O)c7c(=O)cc(C)c8c1c2c(c34)c(c65)c78	3
